Assay results from different studies.
Every numbered part comes from another study and shows a few of its results, in no order.

Study 1
Target: Prothrombin, mature alpha-thrombin (F2, Homo sapiens, UniProt P00734)
Technique: aptamer microarray, sandwich
Form: DNA with 2'F-ANA
Medium: in vitro
Tested at: 200 nM
Setting: whole 15-mer aptamer, many near background
Added: Cy3 exosite-II aptamer, 400 nM
Direction: higher = stronger binding
Sequence: GGTTGGTGTGGTTGG
Modification | mean fluorescence intensity
2'F-ANA at 1 2 3 5 7 14 15 | 43.6 a.u.
2'F-ANA at 2 3 5 9 10 12 15 | 57.5 a.u.
2'F-ANA at 1 4 5 6 7 9 11 12 13 15 | 61.5 a.u.
2'F-ANA at 1 3 4 7 8 9 11 | 214 a.u.
2'F-ANA at 6 9 13 | 317 a.u.

Study 2
Target: Interferon regulatory factor 7, full length, phosphomimetic (IRF7, Homo sapiens, UniProt Q92985, residues 1-503, S471D/S472D/S475D/S476D/S477D/S483D/S484D/S487D)
UniProt Q92985, sequence (whole entry, unmodified, looked up): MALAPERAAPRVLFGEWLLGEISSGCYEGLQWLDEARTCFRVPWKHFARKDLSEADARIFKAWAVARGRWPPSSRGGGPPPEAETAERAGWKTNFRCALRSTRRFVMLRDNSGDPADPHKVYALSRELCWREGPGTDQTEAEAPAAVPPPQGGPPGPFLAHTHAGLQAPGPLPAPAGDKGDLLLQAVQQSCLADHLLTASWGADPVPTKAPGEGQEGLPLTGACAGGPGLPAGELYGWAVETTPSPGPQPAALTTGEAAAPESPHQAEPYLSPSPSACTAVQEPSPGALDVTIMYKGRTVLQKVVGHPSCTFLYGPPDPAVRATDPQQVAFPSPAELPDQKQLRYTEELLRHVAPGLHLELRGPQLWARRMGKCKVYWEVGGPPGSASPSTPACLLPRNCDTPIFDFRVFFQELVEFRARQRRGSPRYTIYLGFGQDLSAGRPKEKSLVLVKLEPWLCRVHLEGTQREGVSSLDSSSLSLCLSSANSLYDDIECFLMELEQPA
Technique: protein-binding microarray
Form: double-stranded DNA, one strand shown
Medium: in vitro
Tested at: 2200 nM top
Setting: 60-bp whole probe
Added: salmon DNA 0.4 mg/ml
Reference: random background probes
Direction: higher = stronger binding
Shared flanks, not repeated: GCCTAGCAC … GTCTTGATTCGCTTGACGCTGCTG
Sequence | fitted relative affinity
TTAGGTATCCATCTCCTTTAGTGCTAG | 0.904 z-score
TCAGAACTGAGTTTCGATTAGTGCTAG | 3.81 z-score
TTAGGTTCCGGCTTCGGTTAGTGCTAG | 1.53 z-score
GACGATATCGGGTATCGAGCCGTGCTA | 0.0306 z-score
GACGGTCTCGGTCTCGGGTCGTGCTAG | 0.318 z-score
GACGATATCGGGACCGGAGACGTGCTA | -0.0118 z-score

Study 3
Target: Histone acetyltransferase KAT6A, winged helix 1, GST fusion (KAT6A, Homo sapiens, UniProt Q92794, residues 1-85)
Technique: protein binding microarray
Form: double-stranded DNA, one strand shown
Medium: in vitro
Tested at: not given
Setting: 8-mer, flanks averaged, mean of 2 arrays, mostly near background
Reference: not given
Direction: higher = stronger binding
Construct (chain): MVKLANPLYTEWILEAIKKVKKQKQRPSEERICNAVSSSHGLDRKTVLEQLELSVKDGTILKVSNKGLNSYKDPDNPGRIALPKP
Sequence | E-score
AGATGTCG | -0.0217
CTAAGCTC | -0.191
CGTCTGAA | -0.0787
TCACTCGA | -0.275
AAGACTCC | -0.0806
GAGTACTA | -0.0419
AGAGGATG | -0.22
AGGAAGAT | -0.0531

Single results of other studies
Molecule | target | assay | system | setting | scale | quantity | value
PhoQ, residues 284 288 289 292 302 303 TNSAEL | PhoP, residues 12 14 15 18 19 SGWQI (Escherichia coli, UniProt P23836) | Sort-seq, measured: YFP reporter | E. coli | PhoQ-PhoP variant library, added: 10 µM Mg2+ | reference: high Mg2+ state, higher = stronger signaling | fold induction | 1.85
